Assay results gathered from unrelated publications.
Numbers after ± are the reported error.

With `CSCC[C@H](NC(=O)CNC(=O)[C@H](CCCCN)NC(=O)[C@H](CC(C)C)NC(=O)[C@@H]1CCCN1C(=O)[C@H](CO)NC(=O)[C@H](Cc1c[nH]cn1)NC(=O)[C@H](Cc1c[nH]c2ccccc12)NC(=O)[C@H](CCCNC(=N)N)NC(=O)[C@H](CC(C)C)NC(=O)[C@H](CCCNC(=N)N)NC(=O)[C@H](Cc1c[nH]c2ccccc12)NC(=O)[C@H](CS)NC(=O)CCCCCNC(=O)CN1CCN(CC(=O)O)CCN(CC(=O)O)CCN(CC(=O)O)CC1)C(=O)O` [copper-64 labelled] the tissue uptake was 0.29 %ID/g (C57BL/6J mice, B16-F10 tumour, brain; intravenous, 1.85 MBq, 30 h).
For `C[C@H](O)[C@@H](NC(=O)[C@H]1CCCN1C(=O)[C@@H](CCCCN)NC(=O)[C@@H](CO)NC(=O)[C@@H](Cc1ccc(O)cc1)NC(=O)[C@@H](CC(N)=O)NC(=O)CCOCCOCCOCCNC(=O)CN1CCN(CC(=O)O)CCN(CC(=O)O)CCN(CC(=O)O)CC1)C(=O)N[C@H](CC(=O)O)C(=O)N[C@H](CCCNC(=N)N)C(=O)N[C@H](CCC(N)=O)C(=O)N[C@H](Cc1ccc(O)cc1)C(=O)N[C@H](Cc1c[nH]cn1)C(=O)N[C@H](Cc1ccccc1)C(N)=O` [gallium-68 labelled], the tissue uptake was 0.08 ± 0.01 %ID/g (BALB/c nude mice U-87 MG tumour, stomach; intravenous, 1.85 MBq, 1 h, radiolabelled).
With `CC(C)C[C@@H](NC(=O)[C@@H](CCCNC(=N)N)NC(=O)[C@@H](Cc1c[nH]cn1)NC(=O)[C@@H](Cc1c[nH]c2ccccc12)NC(=O)[C@@H](Cc1c[nH]cn1)NC(=O)[C@@H](Cc1ccccc1)NC(=O)[C@H](NC(=O)[C@@H](Cc1ccc(O)cc1)NC(=O)CNC(=O)CNC(=O)CCOCCOCCOCCNC(=O)CN1CCN(CC(=O)O)CCN(CC(=O)O)CC1)[C@H](C)O)C(=O)N[C@H](CC(N)=O)C(=O)N1CCC[C@@H]1C(=O)O` [gallium-68 labelled] the tissue uptake was 1.14 ± 0.14 %ID/g (gamma counting; C57BL/6 mice, male, lung; intravenous, 1.85 MBq, 30 min).
`CCCC[C@H]1C(=O)N(C)[C@@H](CCCC)C(=O)N[C@@H](CCCNC(=O)CN2CCN(CC(=O)O)CCN(CC(=O)O)CCN(CC(=O)O)CC2)C(=O)N[C@H](C(=O)NCC(N)=O)CSCC(=O)N[C@@H](Cc2ccc(O)cc2)C(=O)N(C)[C@@H](C)C(=O)N[C@@H](CC(N)=O)C(=O)N2CCC[C@H]2C(=O)N[C@@H](Cc2c[nH]cn2)C(=O)N[C@@H](CC(C)C)C(=O)N(C)CC(=O)N[C@@H](Cc2c[nH]c3ccccc23)C(=O)N[C@@H](CO)C(=O)N[C@@H](Cc2c[nH]c3ccccc23)C(=O)N1C` [gallium-68 labelled] has a tissue uptake of 4.03 ± 1.58 %ID/g (NOD/SCID mice with CHO-hPD-L1 xenograft, skin; 120 min post injection).
`CC[C@H](C)[C@H](NC(=O)[C@H](CCCNC(=N)N)NC(=O)[C@H](CCCCN)NC(=O)[C@H](Cc1ccc(O)cc1)NC(=O)[C@H](CC(=O)O)NC(=O)[C@H](C)NC(=O)CNC(=O)CCOCCOCCOCCNC(=O)CN1CCN(CC(=O)O)CCN(CC(=O)O)CCN(CC(=O)O)CC1)C(=O)N[C@H](C(=O)N[C@@H](CC(C)C)C(=O)N[C@@H](CCCCN)C(=O)N[C@H](C(=O)N[C@@H](CC(N)=O)C(N)=O)C(C)C)[C@@H](C)O` [copper-64 labelled] gave a tissue uptake of 1.26 ± 0.592 %ID/g (ex vivo gamma counting; C57BL/6J male mice, B16-F10 tumour, stomach; intravenous, 1.85 MBq, 20 min).
With `CC[C@H](C)[C@H](NC(=O)[C@H](CCCCN)NC(=O)CNC(=O)[C@H](CC(C)C)NC(=O)[C@H](Cc1ccccc1)NC(=O)[C@H](CCCCN)NC(=O)[C@H](CO)NC(=O)[C@H](Cc1ccccc1)NC(=O)[C@H](Cc1c[nH]c2ccccc12)NC(=O)[C@H](CCC(N)=O)NC(=O)[C@@H](NC(=O)[C@H](Cc1ccccc1)NC(=O)CCCCCNC(=O)CN1CCN(CC(=O)O)CCN(CC(=O)O)CCN(CC(=O)O)CC1)C(C)C)C(=O)N[C@@H](CCC(=O)O)C(=O)N1CCC[C@H]1C(=O)N[C@@H](CC(=O)O)C(=O)N[C@H](C(=O)N[C@@H](CO)C(=O)N[C@@H](CCC(N)=O)C(=O)N[C@H](C(=O)N[C@@H](CCC(N)=O)C(=O)N[C@@H](CC(=O)O)C(=O)N1CCC[C@H]1C(=O)N[C@@H](CC(N)=O)C(=O)N[C@@H](CC(=O)O)C(=O)N[C@@H](CCC(N)=O)C(=O)N[C@@H](Cc1ccc(O)cc1)C(=O)N[C@@H](CCC(=O)O)C(=O)N1CCC[C@H]1C(=O)N[C@@H](Cc1ccccc1)C(=O)O)C(C)C)C(C)C` [copper-64 labelled] the tissue uptake was 0.54 ± 0.1 %ID/g (BALB/c mice, male, CT26 tumour-bearing, bone; 2 h, anti-PD1 plus anti-CTLA4 treated).
`CC[C@H](C)[C@H](NC(=O)[C@H](CCCNC(=N)N)NC(=O)[C@H](CCCCN)NC(=O)[C@H](Cc1ccc(O)cc1)NC(=O)[C@H](CC(=O)O)NC(=O)[C@H](C)NC(=O)CNC(=O)CCOCCOCCOCCNC(=O)CN1CCN(CC(=O)O)CCN(CC(=O)O)CCN(CC(=O)O)CC1)C(=O)N[C@H](C(=O)N[C@H](C(=O)N[C@@H](CCCCN)C(=O)N[C@H](C(=O)N[C@@H](CC(N)=O)C(N)=O)C(C)C)C(C)C)[C@@H](C)O` [copper-64 labelled] has a tissue uptake of 0.47 ± 0.054 %ID/g (ex vivo gamma counting; C57BL/6J male mice, B16-F10 tumour, blood; intravenous, 1.85 MBq, 100 min).
With `CC[C@H](C)[C@H](NC(=O)[C@@H](Cc1c[nH]c2ccccc12)NC(=O)[C@@H]1CCCN1C(=O)[C@H](CCCCN)NC(=O)[C@H](CCCCN)NC(=O)CCNC(=O)CCNC(=O)CN1CCN(CC(=O)O)CCN(CC(=O)O)CCN(CC(=O)O)CC1)C(=O)N[C@@H](C[Si](C)(C)C)C(=O)O` [gallium-68 labelled] the tissue uptake was 0.37 ± 0.11 %ID/g (ex vivo biodistribution; nude mice, HT-29 xenograft, liver; 90 min, with: levocabastine 0.5 µmol).

Some of these lines once more:
With `CC[C@H](C)[C@H](NC(=O)[C@@H](Cc1c[nH]c2ccccc12)NC(=O)[C@@H]1CCCN1C(=O)[C@H](CCCCN)NC(=O)[C@H](CCCCN)NC(=O)CCNC(=O)CCNC(=O)CN1CCN(CC(=O)O)CCN(CC(=O)O)CCN(CC(=O)O)CC1)C(=O)N[C@@H](C[Si](C)(C)C)C(=O)O` [gallium-68 labelled] the tissue uptake was 0.37 ± 0.11 %ID/g (ex vivo biodistribution; nude mice, HT-29 xenograft, liver; 90 min, with: levocabastine 0.5 µmol).
